Measurements of several laboratories.
Each line is one published result; not all experiments were run side by side. ± marks the error that the study gave.

| SMILES | organism | assay | test system | conditions | scale | endpoint | result |
| --- | --- | --- | --- | --- | --- | --- | --- |
| [O-][N+]1=C(Cc2ccccc2)C2=NCCCN2c2ccccc21 | Clostridium perfringens | microbial growth | – | – | – | MIC50 | > 32 µg/mL |
| CN1CCN(C(=O)N[C@@H](Cc2ccccc2)C(=O)N[C@H](/C=C/S(=O)(=O)c2ccccc2)CCc2ccccc2)CC1 | Lassa virus | pseudovirus entry | HEK-293T | – | – | IC50 | > 100 nM |
| COc1ccc(C2=[N+]([O-])c3ccccc3N3CC(C)(C)CN=C23)cc1 | Clostridium butyricum | – | – | – | – | MIC | 0.25 µg/mL |
| CO/C1=C\C(C)=C\[C@@H](C)[C@@H](O)[C@@H](C)C/C(C)=C/C=C/[C@H](OC)[C@@H]([C@@H](C)[C@@H](O)[C@H](C)C(=O)/C=C/[C@H](C)[C@H](O)C(C)C)OC1=O | SARS-CoV-2 Omicron BA.5 | viral replication, dsRNA staining | Calu-3 | – | – | EC50 | 38.6 nM |
| CC[C@H](C)[C@H](NC(C)=O)C(=O)N[C@@H](CO)C(=O)NCC(=O)N[C@H](C(=O)N[C@@H](CC(N)=O)C(=O)N[C@@H](C)C(=O)N[C@@H](CO)C(=O)N[C@H](C(=O)N[C@H](C(=O)N[C@@H](CC(N)=O)C(=O)N[C@H](C(=O)N[C@@H](CCC(N)=O)C(=O)N[C@@H](CCC(=O)O)C(=O)N[C@@H](CCC(=O)O)C(=O)N[C@H](C(=O)N[C@@H](CCCCN)C(=O)N[C@@H](CCCCN)C(=O)N[C@@H](CC(C)C)C(=O)N[C@@H](CC(N)=O)C(=O)N[C@@H](CCC(=O)O)C(=O)N[C@@H](CCC(=O)O)C(=O)N[C@@H](C)C(=O)N[C@@H](CCCCN)C(=O)N[C@@H](CCCCN)C(=O)N[C@@H](CC(C)C)C(=O)N[C@@H](CC(N)=O)C(=O)N[C@@H](CCC(=O)O)C(=O)N[C@@H](CO)C(=O)N[C@@H](CC(C)C)C(=O)N[C@H](C(=O)N[C@@H](CC(=O)O)C(=O)N[C@@H](CC(C)C)C(=O)N[C@@H](CCC(N)=O)C(=O)N[C@@H](CCC(=O)O)C(=O)NCC(=O)NCC(=O)NCC(=O)N[C@@H](CO)C(=O)NCC(=O)NCC(=O)NCC(=O)N[C@@H](CSSC[C@H](NC(=O)CNC(=O)CNC(=O)CNC(=O)[C@H](CO)NC(=O)CNC(=O)CNC(=O)CNC(=O)[C@H](CCC(=O)O)NC(=O)[C@H](CCC(N)=O)NC(=O)[C@H](CC(C)C)NC(=O)[C@H](CC(=O)O)NC(=O)[C@@H](NC(=O)[C@H](CC(C)C)NC(=O)[C@H](CO)NC(=O)[C@H](CCC(=O)O)NC(=O)[C@H](CC(N)=O)NC(=O)[C@H](CC(C)C)NC(=O)[C@H](CCCCN)NC(=O)[C@H](CCCCN)NC(=O)[C@H](C)NC(=O)[C@H](CCC(=O)O)NC(=O)[C@H](CCC(=O)O)NC(=O)[C@H](CC(N)=O)NC(=O)[C@H](CC(C)C)NC(=O)[C@H](CCCCN)NC(=O)[C@H](CCCCN)NC(=O)[C@@H](NC(=O)[C@H](CCC(=O)O)NC(=O)[C@H](CCC(=O)O)NC(=O)[C@H](CCC(N)=O)NC(=O)[C@@H](NC(=O)[C@H](CC(N)=O)NC(=O)[C@@H](NC(=O)[C@@H](NC(=O)[C@H](CO)NC(=O)[C@H](C)NC(=O)[C@H](CC(N)=O)NC(=O)[C@@H](NC(=O)CNC(=O)[C@H](CO)NC(=O)[C@@H](NC(C)=O)[C@@H](C)CC)[C@@H](C)CC)C(C)C)C(C)C)[C@@H](C)CC)[C@@H](C)CC)[C@@H](C)CC)C(=O)N[C@@H](CCCNC(=N)N)C(=O)N[C@@H](CCCNC(=N)N)C(=O)N[C@@H](CCCNC(=N)N)C(=O)N[C@@H](CCCNC(=N)N)C(=O)N[C@@H](CCCNC(=N)N)C(=O)N[C@@H](CCCNC(=N)N)C(=O)N[C@@H](CCCNC(=N)N)C(=O)N[C@@H](CCCNC(=N)N)C(N)=O)C(=O)N[C@@H](CCCNC(=N)N)C(=O)N[C@@H](CCCNC(=N)N)C(=O)N[C@@H](CCCNC(=N)N)C(=O)N[C@@H](CCCNC(=N)N)C(=O)N[C@@H](CCCNC(=N)N)C(=O)N[C@@H](CCCNC(=N)N)C(=O)N[C@@H](CCCNC(=N)N)C(=O)N[C@@H](CCCNC(=N)N)C(N)=O)[C@@H](C)CC)[C@@H](C)CC)[C@@H](C)CC)C(C)C)C(C)C)[C@@H](C)CC | SARS-CoV-2 Wuhan | viral replication | VeroE6/TMPRSS2 cells | – | relative to: corresponding monomer | fold change IC50 vs corresponding monomer | 1.93 |
| COC(=O)CC1C2CCCN3CCCC(CN1C(=O)c1ccc(Cl)cc1)C23.Cl (stereo not shown) | Ebola virus | – | – | EBOV GP pseudotyped HIV | relative to: CC50 over IC50 | selectivity index | > 2.27 |
| C[C@@H]1CCCN1CCc1cc2cc(-c3ccc(C#N)cc3)ccc2o1 | Naegleria fowleri | – | ATCC 30808 | – | relative to: CC50 J774A.1 over IC50 trophozoites | selectivity ratio | 18.8 |
| COC(=O)c1ncn(C2OC(COC(=O)c3ccccc3)C(OC(=O)c3ccccc3)C2OC(=O)c2ccccc2)c1C(=O)OC (stereo not shown) | Mammarenavirus lassaense | viral replication, inhibitor | Vero | 48 h | – | IC50 | 46 µg/mL |
| CC[C@H](C)[C@H](NC(=O)[C@H](CCCCN)NC(=O)[C@H](CCCCN)NC(=O)[C@H](CC(C)C)NC(=O)[C@H](Cc1c[nH]c2ccccc12)NC(=O)CN)C(=O)NCC(=O)N[C@@H](CCCCN)C(=O)N[C@@H](CCCCN)C(=O)N[C@H](C(=O)N[C@@H](CCC(=O)O)C(=O)N[C@@H](CCCNC(=N)N)C(=O)N[C@H](C(=O)NCC(=O)N[C@@H](CCC(N)=O)C(=O)N[C@@H](Cc1c[nH]cn1)C(=O)N[C@H](C(=O)N[C@@H](CCCNC(=N)N)C(=O)N[C@@H](CC(=O)O)C(=O)N[C@@H](C)C(=O)N[C@H](C(=O)N[C@H](C(=O)N[C@@H](CCC(N)=O)C(=O)N[C@H](C(=O)N[C@H](C(=O)NCC(=O)N[C@H](C(=O)N[C@@H](C)C(=O)N[C@@H](CCC(N)=O)C(=O)N[C@@H](CCC(N)=O)C(=O)N[C@@H](C)C(=O)N[C@@H](C)C(=O)N[C@@H](CC(N)=O)C(=O)N[C@H](C(=O)N[C@@H](C)C(=O)N[C@@H](C)C(=O)N[C@H](C(=O)N[C@@H](CC(C)C)C(=O)N[C@@H](CCCCN)C(N)=O)[C@@H](C)O)C(C)C)C(C)C)[C@@H](C)CC)[C@@H](C)O)[C@@H](C)CC)[C@@H](C)O)[C@@H](C)O)C(C)C)[C@@H](C)CC | Escherichia coli | broth microdilution | RKI 131/03, CAMHB with 10% mouse serum | – | – | MIC | 0.5 µg/mL |
| O=C(c1ccccc1O)c1[nH]c(Cl)c(Cl)c1-n1c(C(=O)c2ccccc2O)cc(Cl)c1Cl | Brucella anthropi | – | ATCC 49687 | – | – | MIC | 32 µM |
| COC(=O)c1ncn(C2CC(OC(=O)c3ccc(C)cc3)C(COC(=O)c3ccc(C)cc3)O2)c1C(=O)OC (stereo not shown) | Zaire ebolavirus | viral replication, inhibitor | Vero | 72 h | – | IC50 | 10 µg/mL |
| Cc1ccc(NS(=O)(=O)c2c(C(=O)N3CCCCCC3)c(C)n(C)c2C)c(Cl)c1 | Monkeypox virus | – | Vero C1008, wild type | 10 µM, 72 h | relative to: untreated | relative infection | 0% |
| COc1cc(Cc2cnc(N)nc2N)cc(OC)c1OC.O=c1[nH]cc(F)c(=O)[nH]1 | Shigella dysenteriae | broth microdilution | – | 24 h | – | MIC | 8 µg/mL |
| O=C(NNC(=S)Nc1ccc(C(F)(F)F)cc1)c1ccccn1 | MERS-CoV | viral replication, measured: upE gene | – | concentration not given | – | upE transcript level | decreased |
| C[N+]1=C2C(c3ccccc3)=[N+]([O-])c3ccccc3N2CCC1 | Clostridium perfringens | – | – | – | – | MIC90 | 32 µg/mL |
| O=[N+]([O-])c1ccc(-n2nc(-c3ccccc3)cc2-c2ccc(F)cc2)c([N+](=O)[O-])c1 | Japanese encephalitis virus | – | SA14-14-2, BALB/c mice, brain | ip, 100 mg/kg/day | relative to: untreated | viral RNA reduction | ~33% |
| N#Cc1ncn(COCCO)c1C#N | Severe acute respiratory syndrome coronavirus | viral replication | Vero | 48 h | – | IC50 | 48 µg/mL |
| Cc1ccc(N2CC3CC(C2)N3)cc1C(=O)NC1(c2ccc3c4c(cccc24)C(=O)N3C)CC1 | SARS-CoV-2 | viral replication | Vero C1008, Omicron BA.5 | 0.005716 µM | – | inhibition | 0% |
| NC(=O)c1nc(F)c[nH]c1=O | Lassa mammarenavirus | viral replication | Huh-7 | concentration not given | – | Emax | 99 ± 0.2% |
| CN[C@@H]1[C@H](O)[C@H](NC)[C@H]2O[C@]3(O)[C@H](O[C@@H]2[C@H]1O)O[C@H](C)C[C@]3(O)CNCc1ccc(OC(F)(F)F)cc1 | Legionella pneumophila | – | ATCC 33153 | 40 µg per disc, 48 h | – | inhibition zone diameter | 8 mm |
| O=S(=O)(O)c1c2ccccc2c(-c2c3nc(c(-c4c5ccccc5c(S(=O)(=O)O)c5ccccc45)c4ccc([nH]4)c(-c4c5ccccc5c(S(=O)(=O)O)c5ccccc45)c4nc(c(-c5c6ccccc6c(S(=O)(=O)O)c6ccccc56)c5ccc2[nH]5)C=C4)C=C3)c2ccccc12 | vaccinia virus | viral replication | CV-1, WR | 50 µg/mL, 16 h | – | inhibition | 96% |
| CC(C)CC(C(=O)N1CC2(CC1C#N)C(=O)Nc1ccccc12)N(C)C(=O)c1cc2c(F)cc(F)c(F)c2[nH]1 (stereo not shown) | SARS-CoV-2 | viral replication, infectious virus | Vero E6 | 10 µM | – | inhibition | 99.6% |

A few entries again:
| SMILES | organism | assay | test system | conditions | scale | endpoint | result |
| --- | --- | --- | --- | --- | --- | --- | --- |
| O=C(c1ccccc1O)c1[nH]c(Cl)c(Cl)c1-n1c(C(=O)c2ccccc2O)cc(Cl)c1Cl | Brucella anthropi | – | ATCC 49687 | – | – | MIC | 32 µM |
| C[C@@H]1CCCN1CCc1cc2cc(-c3ccc(C#N)cc3)ccc2o1 | Naegleria fowleri | – | ATCC 30808 | – | relative to: CC50 J774A.1 over IC50 trophozoites | selectivity ratio | 18.8 |
